Measurements gathered from unrelated publications.
Lines come from different studies, so protocols differ. Numbers after ± are the reported error.

`CC[C@H](C)C(=O)N1CCC(NC(=O)Nc2ccc(OC(F)(F)F)c(F)c2)CC1` — result for “subjects with COVID-19 TEAE”: 0% (healthy volunteers; oral, 16 mg single dose).
For `CC[C@H](C)[C@H](NC(=O)[C@H](CCCCN)NC(=O)[C@H](CCCCN)NC(=O)[C@H](CC(C)C)NC(=O)[C@H](Cc1c[nH]c2ccccc12)NC(=O)CN)C(=O)NCC(=O)N[C@@H](CCCCN)C(=O)N[C@@H](CCCCN)C(=O)N[C@H](C(=O)N[C@@H](CCC(=O)O)C(=O)N[C@@H](CCCNC(=N)N)C(=O)N[C@H](C(=O)NCC(=O)N[C@@H](CCC(N)=O)C(=O)N[C@@H](Cc1c[nH]cn1)C(=O)N[C@H](C(=O)N[C@@H](CCCNC(=N)N)C(=O)N[C@@H](CC(=O)O)C(=O)N[C@@H](C)C(=O)N[C@H](C(=O)N[C@H](C(=O)N[C@@H](CCC(N)=O)C(=O)N[C@H](C(=O)N[C@H](C(=O)NCC(=O)N[C@H](C(=O)N[C@@H](C)C(=O)N[C@@H](CCC(N)=O)C(=O)N[C@@H](CCC(N)=O)C(=O)N[C@@H](C)C(=O)N[C@@H](C)C(=O)N[C@@H](CC(N)=O)C(=O)N[C@H](C(=O)N[C@@H](C)C(=O)N[C@@H](C)C(=O)N[C@H](C(=O)N[C@@H](CC(C)C)C(=O)N[C@@H](CCCCN)C(N)=O)[C@@H](C)O)C(C)C)C(C)C)[C@@H](C)CC)[C@@H](C)O)[C@@H](C)CC)[C@@H](C)O)[C@@H](C)O)C(C)C)[C@@H](C)CC`, the MIC was over 1020 µg/mL (Staphylococcus aureus; broth microdilution; ATCC 33592, CAMHB).
Under “fold decrease in affinity”, `CC[C@H](C)[C@@H]1NC(=O)[C@H](CC(=O)O)NC(=O)[C@H]([C@@H](C)O)NC(=O)[C@@H]2CSSC[C@@H]3NC(=O)[C@H](CC(C)C)NC(=O)[C@H](CC(N)=O)NC(=O)[C@H](CC(C)C)NC(=O)[C@H](CCCNC(=N)N)NC(=O)[C@H](Cc4ccc(O)cc4)NC(=O)[C@H](CC(N)=O)NC(=O)[C@H](CCSC)NC(=O)[C@H](CO)NC(=O)[C@H]([C@@H](C)O)NC(=O)[C@H](CCCNC(=N)N)NC(=O)[C@H](CSSC[C@H](NC(=O)[C@H]([C@@H](C)O)NC(=O)[C@H](CCCCN)NC(=O)[C@H](CCCNC(=N)N)NC3=O)C(=O)NCC(=O)N[C@@H](CO)C(=O)N[C@H](C(=O)O)CSSC[C@H](NC(=O)[C@@H](NC(=O)[C@@H](N)CCCNC(=N)N)[C@@H](C)O)C(=O)N[C@@H](CCCCN)C(=O)N[C@@H](CC(=O)O)C(=O)N[C@@H](CC(C)C)C(=O)N[C@@H]([C@@H](C)CC)C(=O)N3CCC[C@H]3C(=O)N[C@@H](C(C)C)C(=O)N[C@@H](CO)C(=O)N[C@@H](CCC(=O)O)C(=O)N2)NC(=O)[C@H](CCCNC(=N)N)NC1=O` is recorded as about 240 fold (KcsA-Shaker chimera channel; two-electrode voltage clamp; Xenopus oocytes; baseline: wild type toxin).
`CC[C@H](C)[C@@H]1NC(=O)[C@H](CCCNC(=N)N)NC(=O)[C@H](CO)NC(=O)[C@H](CCC(=O)O)NC(=O)[C@H](CC(=O)O)NC(=O)CNC(=O)CNC(=O)[C@H]([C@@H](C)O)NC(=O)[C@H](Cc2ccccc2)NC(=O)[C@H](CO)NC(=O)[C@H]([C@@H](C)O)NC(=O)[C@H](C)NC(=O)[C@@H]2CSSC[C@@H](C(=O)N[C@@H](Cc3ccc(O)cc3)C(=O)N[C@@H](Cc3ccccc3)C(=O)N[C@H](C(=O)N[C@H](C(=O)NCC(=O)O)[C@@H](C)O)[C@@H](C)O)NC(=O)[C@H]([C@@H](C)O)NC(=O)[C@H](CSSC[C@H](NC(=O)[C@H](CCC(=O)O)NC(=O)[C@H](CO)NC(=O)[C@H](CCCCN)NC(=O)[C@H](Cc3ccc(O)cc3)NC(=O)[C@@H]3CCCN3C(=O)[C@H](Cc3ccccc3)NC(=O)[C@H](CCCCN)NC(=O)[C@H](CCCNC(=N)N)NC(=O)[C@H](CCCCN)NC(=O)[C@H](CCCCN)NC(=O)[C@H](Cc3ccc(O)cc3)NC(=O)[C@@H]3CCCN3C(=O)[C@@H](NC(=O)[C@H](CC(=O)O)NC(=O)[C@H](CCCCN)NC(=O)[C@H](CCCCN)NC(=O)[C@@H](NC(=O)[C@@H](NC(=O)[C@@H](N)CCC(=O)O)C(C)C)[C@@H](C)CC)[C@@H](C)O)C(=O)N[C@@H](CC(C)C)C(=O)N[C@@H](CCCCN)C(=O)N[C@@H](C)C(=O)N2)NC(=O)[C@H](CCCCN)NC(=O)[C@H](Cc2ccccc2)NC(=O)[C@H](Cc2ccccc2)NC(=O)CNC(=O)[C@@H]2CCCN2C(=O)[C@H](CCCCN)NC(=O)CNC(=O)[C@H](CCC(=O)O)NC(=O)[C@H](CCC(N)=O)NC1=O` — result for “loss of inhibition”: about 99% (KCNQ4 (Homo sapiens, UniProt P56696, D266G); potassium current, whole-cell patch clamp; 10 µM; baseline: wild type).
The Ki of `CC(C)C[C@H](NC(=O)[C@H](CO)NC(=O)[C@H](CCCCN)NC(=O)[C@H](CC(C)C)NC(=O)[C@H](C)NC(=O)[C@H](CCCCN)NC(=O)[C@H](CCC(=O)O)NC(=O)[C@H](C)NC(=O)[C@H](CC(C)C)NC(=O)[C@H](CC(N)=O)NC(=O)[C@@H]1CCCN1C(=O)[C@H](CC(C)C)NC(=O)[C@H](Cc1ccccc1)NC(=O)CNC(=O)[C@H](NC(=O)[C@@H](N)Cc1ccc(O)cc1)[C@H](C)O)C(N)=O` is reported as 14 nM (OPRK1 (Homo sapiens, UniProt P41145); ligand displacement, radioligand; pH 7.5, cell membranes).
`CC[C@H](C)[C@H](NC(=O)[C@H](CCCN)NC(=O)[C@H](CC(=O)O)NC(=O)[C@H](CC(C)C)NC(=O)C(C)(CC(C)C)NC(=O)[C@@H](NC(=O)[C@H](CO)NC(=O)[C@H](Cc1ccc(O)cc1)NC(=O)[C@H](CC(=O)O)NC(=O)[C@H](CO)NC(=O)[C@@H](NC(=O)[C@H](Cc1ccccc1)NC(=O)[C@@H](NC(=O)CNC(=O)[C@H](CCC(=O)O)NC(=O)C(C)(C)NC(=O)[C@@H](N)Cc1ccc(O)cc1)[C@@H](C)O)[C@@H](C)CC)[C@@H](C)CC)C(=O)N[C@@H](Cc1c[nH]cn1)C(=O)N[C@@H](CCC(N)=O)C(=O)NC(C)(C)C(=O)N[C@@H](CC(=O)O)C(=O)N[C@@H](Cc1ccccc1)C(=O)N[C@H](C(=O)N[C@@H](CCC(=O)O)C(=O)N[C@@H](Cc1ccc(O)cc1)C(=O)N[C@@H](CCCCNC(=O)COCCOCCNC(=O)COCCOCCNC(=O)CC[C@H](NC(=O)CCCCCCCCCCCCCCCCCCC(=O)O)C(=O)O)C(=O)N[C@@H](CC(C)C)C(=O)N[C@@H](CCC(=O)O)C(=O)NCC(=O)NCC(=O)N1CCC[C@H]1C(=O)N[C@@H](CO)C(=O)N[C@@H](CO)C(=O)NCC(=O)N[C@@H](C)C(=O)N1CCC[C@H]1C(=O)N1CCC[C@H]1C(=O)N1CCC[C@H]1C(=O)N[C@@H](CO)C(N)=O)C(C)C` (stereo partly drawn) has a Cmax of 2910 ng/mL (human, type 2 diabetes; subcutaneous, 25 mg single dose, geometric mean).
For `CCCCCCCCCCCCCCCC(=O)N[C@@H](CCC(=O)NCCOCCOCCC(=O)NCCOCCOCCC(=O)NCCCC[C@H](NC(=O)[C@H](CC(=O)O)NC(=O)[C@H](CC(C)C)NC(=O)[C@H](Cc1ccc(O)cc1)NC(=O)[C@H](CCCCN)NC(=O)[C@H](CO)NC(=O)[C@H](Cc1ccc(O)cc1)NC(=O)[C@H](CC(=O)O)NC(=O)[C@H](CO)NC(=O)[C@@H](NC(=O)[C@H](Cc1ccccc1)NC(=O)[C@@H](NC(=O)CNC(=O)[C@H](CCC(N)=O)NC(=O)[C@@H](CO)NC(=O)[C@@H](N)Cc1c[nH]cn1)[C@@H](C)O)[C@@H](C)O)C(=O)N[C@@H](CCCNC(=N)N)C(=O)N[C@@H](CCCNC(=N)N)C(=O)N[C@@H](C)C(=O)N[C@@H](CCC(N)=O)C(=O)N[C@@H](CC(=O)O)C(=O)N[C@@H](Cc1ccccc1)C(=O)N[C@H](C(=O)N[C@@H](CCC(N)=O)C(=O)N[C@@H](Cc1c[nH]c2ccccc12)C(=O)N[C@@H](CC(C)C)C(=O)N[C@@H](CC(C)C)C(=O)N[C@@H](CC(N)=O)C(=O)N[C@H](C(=O)NCC(=O)NCC(=O)N1CCC[C@H]1C(=O)N[C@@H](CO)C(=O)N[C@@H](CO)C(=O)NCC(=O)N[C@@H](C)C(=O)N1CCC[C@H]1C(=O)N1CCC[C@H]1C(=O)N1CCC[C@H]1C(=O)N[C@@H](CO)C(N)=O)[C@@H](C)O)C(C)C)C(=O)O`, “serum total bilirubin” read 2.2 ± 0.4 µmol/L (female Sprague-Dawley rats; subcutaneous, 500 µg/kg once daily, 14 days).
Under “inactivation time constant ratio”, `CC(C)C[C@@H]1NC(=O)[C@H](CCCNC(=N)N)NC(=O)[C@@H]2CCCN2C(=O)[C@@H]2CSSC[C@H](NC(=O)CNC(=O)[C@@H]3CCCN3C(=O)[C@H](CCCCN)NC(=O)[C@H](CC(=O)O)NC(=O)[C@@H](NC(=O)CN)C(C)C)C(=O)N[C@@H](CCCNC(=N)N)C(=O)N[C@@H](Cc3ccc(O)cc3)C(=O)N[C@@H](CC(C)C)C(=O)N[C@@H](Cc3ccccc3)C(=O)NCC(=O)NCC(=O)N[C@H]3CSSC[C@H](NC(=O)CNC1=O)C(=O)N[C@@H](CCCCN)C(=O)NCC(=O)N[C@@H](CCCCN)C(=O)NCC(=O)N[C@@H](Cc1c[nH]cn1)C(=O)N[C@@H](CC(=O)O)C(=O)N[C@@H](Cc1ccc(O)cc1)C(=O)N[C@H](C(=O)N[C@@H](C)C(=O)N[C@@H](Cc1c[nH]c4ccccc14)C(=O)N[C@@H](CC(=O)O)C(=O)NCC(=O)N[C@H](C(=O)N[C@@H](Cc1ccccc1)C(=O)N[C@@H](CO)C(=O)N[C@@H](CC(=O)O)C(=O)O)[C@@H](C)O)CSSC[C@H](NC(=O)[C@H](CC(=O)O)NC(=O)[C@H](CC(=O)O)NC(=O)[C@H](CC(=O)O)NC(=O)[C@H](CO)NC(=O)[C@H](CCCCN)NC3=O)C(=O)N2` is recorded as 0.91 ± 0.05 (SCN4A (Homo sapiens, UniProt P35499); sodium current, automated patch clamp; HEK293; 1 µM, 50 ms depolarizing pulse; baseline: compound over control).
`CC(C)(C(=O)N1CCC2(CC1)CC(CNS(C)(=O)=O)CCO2)c1ccccc1` (stereo not drawn) — result for “nsP2 ATPase inhibition”: “active” (Polyprotein P1234, nsP2 (Chikungunya virus, UniProt Q8JUX6); nsP2 ATPase activity, inhibitor, ADP-Glo; high micromolar).
With `O=[N+]([O-])c1cccc(O[C@H]2O[C@H](CO)[C@H](O)[C@H](O)[C@H]2O)c1` the log IC50 was -2.72 (ctxB (Vibrio cholerae, UniProt P01556); binding).
`CC(C)(C)OC(=O)C[C@H](NC(=O)OCc1ccccc1)C(=O)CBr`: “time constant of irreversible step” over 300 min (Replicase polyprotein 1ab, main protease (rep, Severe acute respiratory syndrome-related coronavirus, UniProt P0C6X7); covalent inhibitor).
`CC(=O)N[C@H]1[C@@H](OC[C@H](NC(=O)[C@H](C)NC(=O)[C@H](C)N)C(=O)N[C@H](C(=O)N[C@H](C(=O)N[C@H](C(=O)N2CCC[C@H]2C(=O)N[C@@H](C)C(=O)N2CCC[C@H]2C(=O)N[C@@H](C)C(N)=O)[C@@H](C)O[C@H]2O[C@H](CO)[C@H](O)[C@H](O[C@@H]3O[C@H](CO)[C@H](O)[C@H](O)[C@H]3O)[C@H]2NC(C)=O)[C@@H](C)O[C@H]2O[C@H](CO)[C@H](O)[C@H](O[C@@H]3O[C@H](CO)[C@H](O)[C@H](O)[C@H]3O)[C@H]2NC(C)=O)[C@@H](C)O[C@H]2O[C@H](CO)[C@H](O)[C@H](O[C@@H]3O[C@H](CO)[C@H](O)[C@H](O)[C@H]3O)[C@H]2NC(C)=O)O[C@H](CO)[C@H](O)[C@@H]1O[C@@H]1O[C@H](CO)[C@H](O)[C@H](O)[C@H]1O` gave a kon of 2.38e+06 M⁻¹ s⁻¹ (Metalloprotease StcE (stcE, Escherichia coli O157:H7, UniProt O82882); binding; Escherichia coli, EHEC; pH 7.5).
With `CSCC[C@H](NC(=O)[C@H](CCN)NC(=O)[C@@H](NC(=O)[C@H](Cc1c[nH]c2ccccc12)NC(=O)[C@H](CCCNC(=N)N)NC(=O)[C@@H](N)CCNc1ccc([N+](=O)[O-])cc1[N+](=O)[O-])[C@@H](C)O)C(=O)N[C@@H](CC(C)C)C(N)=O` the inhibition was 0% (Botulinum neurotoxin type E (Clostridium botulinum, UniProt Q00496); enzyme activity, inhibitor; concentration not given).
With `CC(=O)N[C@@H](Cc1cn(CCCO[C@@H]2O[C@H](CO)[C@H](O)[C@H](O)[C@H]2O)nn1)C(N)=O` the inhibition potency was 8 fold (ctxB, pentamer (Vibrio cholerae, UniProt P01556); concentration not given; baseline: galactose).
`O=C(C=Cc1ccc(O)c(O)c1)OC1CC(O)(C(=O)O)CC(OC(=O)C=Cc2ccc(O)c(O)c2)C1O` (stereo not drawn) gave a koff of 0.00371 s⁻¹ (Spike glycoprotein (Severe acute respiratory syndrome coronavirus 2, UniProt P0DTC2); binding, BLI).

Repeated from above:
`CC(C)(C(=O)N1CCC2(CC1)CC(CNS(C)(=O)=O)CCO2)c1ccccc1` (stereo not drawn) — result for “nsP2 ATPase inhibition”: “active” (Polyprotein P1234, nsP2 (Chikungunya virus, UniProt Q8JUX6); nsP2 ATPase activity, inhibitor, ADP-Glo; high micromolar).
